# Assay results pooled from the literature.
# Compare with care: the assays were run in different laboratories. Numbers after ± are the reported error.
# Chain of UniProt P08684 (whole entry, unmodified, looked up): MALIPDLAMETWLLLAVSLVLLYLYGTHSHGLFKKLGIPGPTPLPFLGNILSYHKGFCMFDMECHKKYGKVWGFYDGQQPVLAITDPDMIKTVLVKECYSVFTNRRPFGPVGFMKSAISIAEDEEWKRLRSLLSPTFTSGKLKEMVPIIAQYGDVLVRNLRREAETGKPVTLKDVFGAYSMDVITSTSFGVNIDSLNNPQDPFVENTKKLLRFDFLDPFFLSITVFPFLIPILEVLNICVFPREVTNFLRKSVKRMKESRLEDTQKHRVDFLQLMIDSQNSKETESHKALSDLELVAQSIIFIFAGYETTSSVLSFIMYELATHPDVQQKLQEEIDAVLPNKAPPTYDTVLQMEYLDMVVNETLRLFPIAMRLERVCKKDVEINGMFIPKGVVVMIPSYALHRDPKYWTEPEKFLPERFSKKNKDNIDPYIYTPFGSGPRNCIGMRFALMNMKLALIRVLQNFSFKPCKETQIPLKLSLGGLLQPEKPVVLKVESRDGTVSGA
Structure (SMILES),target or system,test,system,conditions,how to read,quantity,value
N#C[C@@H]1CCCN1C(=O)CNC(=O)c1ccnc2ccc(OCCCN3CCN(C(=O)CCc4ccc5c(c4)CN4CCN6CC(=O)[O][68Ga-]([O]C(=O)C4)([O]5)[O]c4ccc(CCC(=O)N5CCN(CCCOc7ccc8nccc(C(=O)NCC(=O)N9CCC[C@H]9C#N)c8c7)CC5)cc4C6)CC3)cc12,U-87 MG tumour model,,"host not given, tumour","1 h, tumour-bearing",,tracer uptake,34.3 %ID/g
Cn1c(=O)oc2ccc(-c3ccc(CC(C#N)NC(=O)C4CNCCCO4)c(F)c3)cc21 (stereo not shown),,,"human, fed, plasma","40 mg single dose, geometric mean",,AUC(0-t),3.34 µg·h/mL
[64Cu+2].c1ccc(CNCc2ccc(CN3CCCN4CCNCCCN(CC4)CC3)cc2)nc1,CXCR4,,"NOD/SCID mouse, U87 and U87-stb-CXCR4 xenografts, stomach","iv, 30 min, ex vivo",,tissue uptake,2.38 ± 0.51 %ID/g
O=c1c2cc([N+](=O)[O-])ccc2n(CCBr)n1Cc1ccccc1,Leishmania amazonensis,,"promastigotes, MHOM/BR/77/LTB0016",,reference: CC50 macrophages over IC50 promastigotes,selectivity index,3
CCN(CC)c1ccc2c(-c3ccc(S(=O)(=O)NCCNC(=O)CN4CCN(CC(=O)[O-])CCN(CC(=O)O)CCN(CC(=O)[O-])CC4)cc3S(=O)(=O)[O-])c3ccc(=[N+](CC)CC)cc-3oc2c1.[64Cu+2],U-87 MG tumour model,,"host not given, kidney","4 h, tumour-bearing",,tracer uptake,4.4 %ID/g
O=C(CCCCC[N+]#[C][99Tc-5]([C]#[N+]CCCCCC(=O)N[C@H]1C(O)O[C@H](CO)[C@@H](O)[C@@H]1O)([C]#[N+]CCCCCC(=O)N[C@H]1C(O)O[C@H](CO)[C@@H](O)[C@@H]1O)([C]#[N+]CCCCCC(=O)N[C@H]1C(O)O[C@H](CO)[C@@H](O)[C@@H]1O)([C]#[N+]CCCCCC(=O)N[C@H]1C(O)O[C@H](CO)[C@@H](O)[C@@H]1O)[C]#[N+]CCCCCC(=O)N[C@H]1C(O)O[C@H](CO)[C@@H](O)[C@@H]1O)N[C@H]1C(O)O[C@H](CO)[C@@H](O)[C@@H]1O (stereo partly shown),U-87 MG tumour model,,"host not given, tumour","2 h, tumour-bearing",,tracer uptake,0.42 %ID/g
Cn1c2ccc([N+](=O)[O-])cc2c(=O)n1Cc1ccccc1,Leishmania amazonensis,,"promastigotes, MHOM/BR/77/LTB0016",,reference: CC50 macrophages over IC50 promastigotes,selectivity index,2
O=C(CCC(=O)OCCNC(=O)[C@@H](Cc1ccccc1)NC(=O)[C@@H](Cc1ccccc1)NC(=O)CCNc1ccc([N+](=O)[O-])c2nonc12)NCCS(=O)(=O)O,porcine liver esterase,substrate,PBS,"100 µM, 24 h, added: esterase 1 U/mL",,conversion,> 50%
COc1ccc2cc(NC(=O)c3cc(-c4cccnc4)nc4ccccc34)ccc2c1,"Cytochrome P450 3A4 (CYP3A4, Homo sapiens, UniProt P08684, S18F)","binding, surface plasmon resonance",,10 °C,,koff fast phase,0.07 s⁻¹
NC(=O)CCCn1c2ccc([N+](=O)[O-])cc2c(=O)n1Cc1ccccc1,Leishmania amazonensis,,"promastigotes, MHOM/BR/77/LTB0016",,reference: CC50 macrophages over IC50 promastigotes,selectivity index,10
COC(=O)CN1CCN(CC(=O)OC)CCN(Cc2cc(-c3nc4ccccc4s3)cc(OC)c2O)CC1,copper(II) ion,"metal chelation, spectrophotometric titration",aqueous solution,"50 µM, pH 7.4, added: Cu(II) 50 µM",higher = stronger binding,pCu,10.3
[64Cu+2].c1cnc(CNCc2ccc(CN3CCCN4CCNCCCN(CC4)CC3)cc2)nc1,CXCR4,,"NOD/SCID mouse, U87 and U87-stb-CXCR4 xenografts, muscle","iv, 240 min, ex vivo",,tissue uptake,0.3 ± 0.02 %ID/g
CCCn1c2ccc([N+](=O)[O-])cc2c(=O)n1Cc1ccccc1,Leishmania amazonensis,,"promastigotes, MHOM/BR/77/LTB0016",,reference: CC50 macrophages over IC50 promastigotes,selectivity index,6

# Some of these lines once more:
Structure (SMILES),target or system,test,system,conditions,how to read,quantity,value
CCN(CC)c1ccc2c(-c3ccc(S(=O)(=O)NCCNC(=O)CN4CCN(CC(=O)[O-])CCN(CC(=O)O)CCN(CC(=O)[O-])CC4)cc3S(=O)(=O)[O-])c3ccc(=[N+](CC)CC)cc-3oc2c1.[64Cu+2],U-87 MG tumour model,,"host not given, kidney","4 h, tumour-bearing",,tracer uptake,4.4 %ID/g
